# Measured values gathered from unrelated publications.
# Method: steady-state kinetics
# B1: primase (Aquifex aeolicus, UniProt O67465); chain MSSDIDELRREIDIVDVISEYLNLEKVGSNYRTNCPFHPDDTPSFYVSPSKQIFKCFGCGVGGDAIKFVSLYEDISYFEAALELAKRYGKKLDLEKISKDEKVYVALDRVCDFYRESLLKNREASEYVKSRGIDPKVARKFDLGYAPSSEALVKVLKENDLLEAYLETKNLLSPTKGVYRDLFLRRVVIPIKDPRGRVIGFGGRRIVEDKSPKYINSPDSRVFKKGENLFGLYEAKEYIKEEGFAILVEGYFDLLRLFSEGIRNVVAPLGTALTQNQANLLSKFTKKVYILYDGDDAGRKAMKSAIPLLLSAGVEVYPVYLPEGYDPDEFIKEFGKEELRRLINSSGELFETLIKTARENLEEKTREFRYYLGFISDGVRRFALASEFHTKYKVPMEILLMKIEK
# B2: CYP2C19 (Homo sapiens, UniProt P33261); chain MDPFVVLVLCLSCLLLLSIWRQSSGRGKLPPGPTPLPVIGNILQIDIKDVSKSLTNLSKIYGPVFTLYFGLERMVVLHGYEVVKEALIDLGEEFSGRGHFPLAERANRGFGIVFSNGKRWKEIRRFSLMTLRNFGMGKRSIEDRVQEEARCLVEELRKTKASPCDPTFILGCAPCNVICSIIFQKRFDYKDQQFLNLMEKLNENIRIVSTPWIQICNNFPTIIDYFPGTHNKLLKNLAFMESDILEKVKEHQESMDINNPRDFIDCFLIKMEKEKQNQQSEFTIENLVITAADLLGAGTETTSTTLRYALLLLLKHPEVTAKVQEEIERVIGRNRSPCMQDRGHMPYTDAVVHEVQRYIDLIPTSLPHAVTCDVKFRNYLIPKGTTILTSLTSVLHDNKEFPNPEMFDPRHFLDEGGNFKKSNYFMPFSAGKRICVGEGLARMELFLFLTFILQNFNLKSLIDPKDLDTTPVVNGFASVPPFYQLCFIPV
# B3: TRMT10A D210N (Homo sapiens, UniProt Q8TBZ6); chain MSSEMLPAFIETSNVDKKQGINEDQEESQKPRLGEGCEPISKRQMKKLIKQKQWEEQRELRKQKRKEKRKRKKLERQCQMEPNSDGHDRKRVRRDVVHSTLRLIIDCSFDHLMVLKDIKKLHKQIQRCYAENRRALHPVQFYLTSHGGQLKKNMDENDKGWVNWKDIHIKPEHYSELIKKEDLIYLTSDSPNILKELDESKAYVIGGLVNHNHHKGLTYKQASDYGINHAQLPLGNFVKMNSRKVLAVNHVFEIILEYLETRDWQEAFFTILPQRKGAVPTDKACESASHDNQSVRMEEGGSDSDSSEEEYSRNELDSPHEEKQDKENHTESTVNSLPH
# B4: Tcur_2987 W376F (Thermomonospora curvata, UniProt D1A807); chain ACSEERAAGARPSATQTTGTATEPFHGPHQAGIATPPQAHAVFLGLDLRKGTGRKELGRLMRLLTDDARRLTQGRPALADPEPDLAPLPSRLTFTFGFGPGLFKAAGLEKQRPEGLRPLPPFKVDRLEDRWSGGDLLVQICCDDPITLAHALRMTVKDARAFTRVRWVQRGFRRSPGVQSSGATQRNLMGQLDGTVNPVPGTADFDQAVWVQDGPEWLRGGTTLVLRRIRMELEKWDEADPAGKEFAVGRRLTSGAPLTGRHEHDEPDFDAVDSAGFPVIAENAHIRLAHVDSPRLRMLRRPYNYDEGLTADGRSDAGLLFAAYQADIDRQFIPVQRRLDEGGDLLNLFTTPIGSAVFAIPPGCDENGWIGQGLLG
# B5: SACOL1063 (Staphylococcus aureus, UniProt Q5HH30); chain MFSKVNNQKMLEDCFYIRKKVFVEEQGVPEESEIDEYESESIHLIGYDNGQPVATARIRPINETTVKIERVAVMKSHRGQGMGRMLMQAVESLAKDEGFYVATMNAQCHAIPFYESLNFKMRGNIFLEEGIEHIEMTKKLTSLN
# B6: SAC1 (Saccharomyces cerevisiae, UniProt P32368); chain MTGPIVYVQNADGIFFKLAEGKGTNDAVIHLANQDQGVRVLGAEEFPVQGEVVKIASLMGFIKLKLNRYAIIANTVEETGRFNGHVFYRVLQHSIVSTKFNSRIDSEEAEYIKLLELHLKNSTFYFSYTYDLTNSLQRNEKVGPAASWKTADERFFWNHYLTEDLRNFAHQDPRIDSFIQPVIYGYAKTVDAVLNATPIVLGLITRRSIFRAGTRYFRRGVDKDGNVGNFNETEQILLAENPESEKIHVFSFLQTRGSVPIYWAEINNLKYKPNLVLGENSLDATKKHFDQQKELYGDNYLVNLVNQKGHELPVKEGYESVVHALNDPKIHYVYFDFHHECRKMQWHRVKLLIDHLEKLGLSNEDFFHKVIDSNGNTVEIVNEQHSVVRTNCMDCLDRTNVVQSVLAQWVLQKEFESADVVATGSTWEDNAPLLTSYQNLWADNADAVSVAYSGTGALKTDFTRTGKRTRLGAFNDFLNSASRYYQNNWTDGPRQDSYDLFLGGFRPHTAS
# B7: enzyme (Escherichia coli, UniProt P00383); chain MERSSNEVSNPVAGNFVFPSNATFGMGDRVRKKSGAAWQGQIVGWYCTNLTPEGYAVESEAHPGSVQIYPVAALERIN
# B8: Tcur_2987 W263A (Thermomonospora curvata, UniProt D1A807); chain ACSEERAAGARPSATQTTGTATEPFHGPHQAGIATPPQAHAVFLGLDLRKGTGRKELGRLMRLLTDDARRLTQGRPALADPEPDLAPLPSRLTFTFGFGPGLFKAAGLEKQRPEGLRPLPPFKVDRLEDRWSGGDLLVQICCDDPITLAHALRMTVKDARAFTRVRWVQRGFRRSPGVQSSGATQRNLMGQLDGTVNPVPGTADFDQAVWVQDGPEWLRGGTTLVLRRIRMELEKADEADPAGKEFAVGRRLTSGAPLTGRHEHDEPDFDAVDSAGFPVIAENAHIRLAHVDSPRLRMLRRPYNYDEGLTADGRSDAGLLFAAYQADIDRQFIPVQRRLDEGGDLLNLWTTPIGSAVFAIPPGCDENGWIGQGLLG
# B9: enzyme (UniProt A0A0C2CTX7); chain MQSTRFSTSSSLLLLGALATAACDPTLDPAATRVAASDEGVNDQECTTLLPANVPGLQAQLPTQTMGADFDFDTGNAPIEIVIPAVLPVIAGSVAPGDATIVLRFTTMLSNAWFDATAPYHPTAVGVYSNLGRRPASESTTHANMNIAILYASYRTLNSLAPQHAADWDALMVSLGLDPHDDHESTTDPIGIGNAAAAALLAVRENDGFNQLGFEGGREYNPIPYADYTGYEPRNTRFEIKDERRWQPAIVTSRYGITRAQHFVTPQYALTLPYSYDDPQDFGVPLPDKSLKKGSHAKKKYRAQADEVLEVSANLTDEQKVTAELFEDKIRSLGFSALFVSLSSGHSLLDFVHYDFLTNLAAFDVGIVVWQEKTQYDAVRPFTAIRHIYGDDEITAWGGPGQGTVNDLPANEWRSYLDVADHPEYPSASAAFCAAHAQASRLFLGTDDLGWTVPIPAGSSIVEPAITPAADLNLHFPTFTDFATRCGYSRLWGGVHFEDAILASFELGDEIGAGAYEFVQAHIDGTPP
# B10: Tcur_2987 Y332F (Thermomonospora curvata, UniProt D1A807); chain ACSEERAAGARPSATQTTGTATEPFHGPHQAGIATPPQAHAVFLGLDLRKGTGRKELGRLMRLLTDDARRLTQGRPALADPEPDLAPLPSRLTFTFGFGPGLFKAAGLEKQRPEGLRPLPPFKVDRLEDRWSGGDLLVQICCDDPITLAHALRMTVKDARAFTRVRWVQRGFRRSPGVQSSGATQRNLMGQLDGTVNPVPGTADFDQAVWVQDGPEWLRGGTTLVLRRIRMELEKWDEADPAGKEFAVGRRLTSGAPLTGRHEHDEPDFDAVDSAGFPVIAENAHIRLAHVDSPRLRMLRRPYNFDEGLTADGRSDAGLLFAAYQADIDRQFIPVQRRLDEGGDLLNLWTTPIGSAVFAIPPGCDENGWIGQGLLG
# B11: Tcur_2987 W263F (Thermomonospora curvata, UniProt D1A807); chain ACSEERAAGARPSATQTTGTATEPFHGPHQAGIATPPQAHAVFLGLDLRKGTGRKELGRLMRLLTDDARRLTQGRPALADPEPDLAPLPSRLTFTFGFGPGLFKAAGLEKQRPEGLRPLPPFKVDRLEDRWSGGDLLVQICCDDPITLAHALRMTVKDARAFTRVRWVQRGFRRSPGVQSSGATQRNLMGQLDGTVNPVPGTADFDQAVWVQDGPEWLRGGTTLVLRRIRMELEKFDEADPAGKEFAVGRRLTSGAPLTGRHEHDEPDFDAVDSAGFPVIAENAHIRLAHVDSPRLRMLRRPYNYDEGLTADGRSDAGLLFAAYQADIDRQFIPVQRRLDEGGDLLNLWTTPIGSAVFAIPPGCDENGWIGQGLLG
# B12: TRM10 D210K (Saccharomyces cerevisiae, UniProt Q12400); chain MSNDEINQNEEKVKRTPPLPPVPEGMSKKQWKKMCKRQRWEENKAKYNAERRVKKKRLRHERSAKIQEYIDRGEEVPQELIREPRINVNQTDSGIEIILDCSFDELMNDKEIVSLSNQVTRAYSANRRANHFAEIKVAPFDKRLKQRFETTLKNTNYENWNHFKFLPDDKIMFGDEHISKDKIVYLTADTEEKLEKLEPGMRYIVGGIVKKNRYKELCLKKAQKMGIPTRRLPIDEYINLEGRRVLTTTHVVQLMLKYFDDHNWKNAFESVLPPRKLDAEAKSASSSPAPKDT
# UniProt Q6QT07, sequence (whole entry, looked up): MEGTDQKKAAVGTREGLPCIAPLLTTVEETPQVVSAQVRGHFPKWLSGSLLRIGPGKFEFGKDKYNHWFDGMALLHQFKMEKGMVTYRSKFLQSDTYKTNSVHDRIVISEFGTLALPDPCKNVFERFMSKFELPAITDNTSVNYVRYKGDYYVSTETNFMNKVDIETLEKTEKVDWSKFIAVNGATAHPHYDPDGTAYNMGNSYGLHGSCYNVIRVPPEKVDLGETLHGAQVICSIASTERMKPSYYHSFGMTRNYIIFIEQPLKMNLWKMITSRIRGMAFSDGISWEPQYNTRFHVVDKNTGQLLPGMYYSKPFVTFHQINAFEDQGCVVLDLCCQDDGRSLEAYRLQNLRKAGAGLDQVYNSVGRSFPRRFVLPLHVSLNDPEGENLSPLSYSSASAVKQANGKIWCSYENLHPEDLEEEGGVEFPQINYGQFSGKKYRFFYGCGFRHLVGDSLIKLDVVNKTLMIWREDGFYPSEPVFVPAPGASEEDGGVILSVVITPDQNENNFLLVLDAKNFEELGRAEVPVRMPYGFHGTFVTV
Substance,substrate,medium,pH,temperature,setting,together with,K0.5
B1 (primase),Nc1ccn([C@@H]2O[C@H](COP(=O)(O)OP(=O)(O)OP(=O)(O)O)[C@@H](O)[C@H]2O)c(=O)n1,,pH 7.5,55 °C,,magnesium acetate 10 mM,16 µM
B2 (CYP2C19),COc1cc2c(cc1CC=C(C)C)C(=O)C[C@@H](c1ccc(O)cc1)O2,,pH 7.4,37 °C,,,1.1 µM
B3 (TRMT10A D210N),C[S+](CC[C@H](N)C(=O)O)C[C@H]1O[C@@H](n2cnc3c(N)ncnc32)[C@H](O)[C@@H]1O,,pH 8,30 °C,,,7.84 µM
"pyruvate kinase 1 (Aedes aegypti, UniProt Q16F38)",C=C(OP(=O)(O)O)C(=O)O,,pH 7.5,25 °C,"Hill fit, no effector",ADP 2 mM,246 µM
"BCO2 (Mustela putorius furo, UniProt Q6QT07)",CC1=C(/C=C/C(C)=C/C=C/C(C)=C/C=C/C=C(C)/C=C/C=C(C)/C=C/C2=C(C)C[C@@H](O)CC2(C)C)C(C)(C)C[C@H](O)C1,crude Sf9 lysate,pH 8.5,37 °C,"apparent, not purified","FeSO4 10 µM, NAD+ 3 mM",51.5 µM
B4 (Tcur_2987 W376F),Nc1c(S(=O)(=O)O)cc(Nc2cccc(S(=O)(=O)CCOS(=O)(=O)O)c2)c2c1C(=O)c1ccccc1C2=O,,pH 3,,sigmoidal kinetics,H2O2 1 mM,49 µM
B5 (SACOL1063),CC(=O)SCCNC(=O)CCNC(=O)[C@H](O)C(C)(C)COP(=O)(O)OP(=O)(O)OC[C@H]1O[C@@H](n2cnc3c(N)ncnc32)[C@H](O)[C@@H]1OP(=O)(O)O,,pH 8,37 °C,,"L-Thr 10 mM, AcCoA 0-2 mM",419 µM
B6 (SAC1),CCCCCCCC(=O)OC[C@H](COP(=O)(O)O[C@H]1[C@H](O)[C@@H](O)[C@H](OP(=O)(O)O)[C@@H](O)[C@H]1O)OC(=O)CCCCCCC,,pH 6.8,,,,16 µM
B7 (enzyme),NC(=O)C1=CN([C@@H]2O[C@H](COP(=O)(O)OP(=O)(O)OC[C@H]3O[C@@H](n4cnc5c(N)ncnc54)[C@H](OP(=O)(O)O)[C@@H]3O)[C@@H](O)[C@H]2O)C=CC1,,pH 7,,"not purified, cofactor varied",,10.8 µM
B8 (Tcur_2987 W263A),Nc1c(S(=O)(=O)O)cc(Nc2cccc(S(=O)(=O)CCOS(=O)(=O)O)c2)c2c1C(=O)c1ccccc1C2=O,,pH 3,,sigmoidal kinetics,H2O2 1 mM,28 µM
B9 (enzyme),Br,,,28 °C,,,1000 µM
B10 (Tcur_2987 Y332F),Nc1c(S(=O)(=O)O)cc(Nc2cccc(S(=O)(=O)CCOS(=O)(=O)O)c2)c2c1C(=O)c1ccccc1C2=O,,pH 3,,sigmoidal kinetics,H2O2 1 mM,34 µM
"CYP2C8 (Homo sapiens, UniProt P10632)",COc1cc2c(cc1CC=C(C)C)C(=O)C[C@@H](c1ccc(O)cc1)O2,,pH 7.4,37 °C,,,1.2 µM
B11 (Tcur_2987 W263F),Nc1c(S(=O)(=O)O)cc(Nc2cccc(S(=O)(=O)CCOS(=O)(=O)O)c2)c2c1C(=O)c1ccccc1C2=O,,pH 3,,sigmoidal kinetics,H2O2 1 mM,33 µM
B12 (TRM10 D210K),C[S+](CC[C@H](N)C(=O)O)C[C@H]1O[C@@H](n2cnc3c(N)ncnc32)[C@H](O)[C@@H]1O,,pH 8,30 °C,,,91.8 µM

# Some of these lines once more:
Substance,substrate,medium,pH,temperature,setting,together with,K0.5
B3 (TRMT10A D210N),C[S+](CC[C@H](N)C(=O)O)C[C@H]1O[C@@H](n2cnc3c(N)ncnc32)[C@H](O)[C@@H]1O,,pH 8,30 °C,,,7.84 µM
